Measurements of several laboratories.
A part holds a random share of what one study measured. Changes are numbered by the printed parent chain.

Block 1
Target: PABPC1L2, full length, GST fusion (mouse, UniProt A0ABA7IW68)
Method: RNAcompete
Form: RNA
Sample: in vitro
Concentration: 20 nM
Notes: 7-mer, probes averaged, single round
Relative to: mean of 7-mers
Direction: higher = stronger binding
Construct (chain): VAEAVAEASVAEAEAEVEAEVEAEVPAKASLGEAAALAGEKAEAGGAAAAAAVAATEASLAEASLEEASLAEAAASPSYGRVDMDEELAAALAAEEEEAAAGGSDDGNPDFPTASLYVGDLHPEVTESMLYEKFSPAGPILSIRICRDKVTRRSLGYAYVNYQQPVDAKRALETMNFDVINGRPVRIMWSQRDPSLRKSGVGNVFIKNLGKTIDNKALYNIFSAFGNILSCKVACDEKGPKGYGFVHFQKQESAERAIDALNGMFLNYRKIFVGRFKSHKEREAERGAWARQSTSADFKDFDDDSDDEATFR
`CCGCUAC` gave a 7-mer Z-score of -0.36.
`UAUCAUA` has a 7-mer Z-score of -0.0409.
The 7-mer Z-score of `UGACUUG` is reported as -0.235.
For `CAUGCUG`, the 7-mer Z-score was -0.0953.
With `GGAGGCA` the 7-mer Z-score was 0.341.
For `CUGGCUA`, the 7-mer Z-score was -0.139.
With `UGGAAAC` the 7-mer Z-score was -0.0246.
For `CUGACUC`, the 7-mer Z-score was -0.251.
For `CUUCAAC`, the 7-mer Z-score was -0.324.
The 7-mer Z-score of `AAGCGGG` is reported as 0.642.
The 7-mer Z-score of `GACAUUC` is reported as -0.238.
For `GCGGUAA`, the 7-mer Z-score was -0.00833.
For `CAGGGAU`, the 7-mer Z-score was 0.135.
The 7-mer Z-score of `AAGCAUC` is reported as 0.00436.
With `CUUCUCU` the 7-mer Z-score was -0.351.
`AGCAAUC` has a 7-mer Z-score of 0.066.
With `GAUGGUU` the 7-mer Z-score was -0.213.
`CAGGUGU` gave a 7-mer Z-score of -0.0844.
`UAUGACA` gave a 7-mer Z-score of -0.0192.
`AAACGCU` gave a 7-mer Z-score of 0.379.
`GACAGCG` gave a 7-mer Z-score of -0.0826.
`CCAAGCG` has a 7-mer Z-score of -0.05.
The 7-mer Z-score of `GCUAAGA` is reported as -0.122.
With `AAAAAAU` the 7-mer Z-score was 22.1.

Block 2
Target: Sal-like protein 4, full length isoform B (SALL4, Homo sapiens, UniProt Q9UJQ4-2, residues 1-616)
Method: universal PBM
Form: double-stranded DNA, one strand shown
Sample: in vitro
Concentration: not given
Notes: 8-mer, flanks averaged, mean of replicates
Direction: higher = stronger binding
`AGTACCAC` has an E-score of -0.0752.
With `GGCGGTTA` the E-score was -0.153.
`ACTCACCC` gave an E-score of -0.102.
With `GACGTTAC` the E-score was 0.0257.
The E-score of `GCCAGTAC` is reported as -0.0541.
The E-score of `CTAATCAA` is reported as 0.115.
The E-score of `ACTCGGGC` is reported as -0.215.
The E-score of `CCGATGTC` is reported as -0.161.
With `AAACATCT` the E-score was 0.201.
With `ATCTATCG` the E-score was 0.149.
`GCACACGC` gave an E-score of -0.196.
`TCTGCGCA` has an E-score of -0.205.
`AGGGAGTC` has an E-score of -0.136.
The E-score of `CCAGTACG` is reported as -0.0386.
The E-score of `ATTATTCG` is reported as 0.344.
For `CTTCATGA`, the E-score was 0.0553.
For `CCATAGGG`, the E-score was -0.0305.
With `CGCAGTGC` the E-score was -0.244.

Block 3
Target: CCND1, cyclin fold, Cln2 fusion (human)
Method: yeast growth competition, sequencing
Sample: yeast
Notes: weak parent motif
Relative to: not given
Direction: higher = stronger binding
Starting sequence: USP37 docking peptide (human); PSAKRSLGFLPQP
`ASAKRSLGFLPQP [P1A]` — result for “normalised enrichment score”: 0.0924.
Under “normalised enrichment score”, `PSAKRSAGFLPQP [L7A]` is recorded as -0.137.
For `PSAKRSLGALPQP [F9A]`, “normalised enrichment score” read -0.165.
Under “normalised enrichment score”, `PSAARSLGFLPQP [K4A]` is recorded as 0.334.
For `PAAKRSLGFLPQP [S2A]`, “normalised enrichment score” read 0.187.
Under “normalised enrichment score”, `PSAKRSLGFLPAP [Q12A]` is recorded as 0.572.

Block 4
Target: ABI1, truncated, D143A, DHFR fusion (Arabidopsis thaliana)
Method: DHFR PCA, deep sequencing
Sample: yeast
Notes: methotrexate growth selection, single substitutions
Added: (+)-ABA 0.39 µM
Relative to: wild-type fitted maximum
Direction: higher = stronger binding
Starting sequence: PYL1, truncated, DHFR fusion (Arabidopsis thaliana); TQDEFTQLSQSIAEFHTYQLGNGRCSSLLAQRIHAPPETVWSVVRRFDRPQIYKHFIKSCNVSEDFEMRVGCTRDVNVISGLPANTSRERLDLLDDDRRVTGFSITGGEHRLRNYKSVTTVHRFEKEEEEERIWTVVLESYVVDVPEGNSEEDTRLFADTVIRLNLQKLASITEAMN; partner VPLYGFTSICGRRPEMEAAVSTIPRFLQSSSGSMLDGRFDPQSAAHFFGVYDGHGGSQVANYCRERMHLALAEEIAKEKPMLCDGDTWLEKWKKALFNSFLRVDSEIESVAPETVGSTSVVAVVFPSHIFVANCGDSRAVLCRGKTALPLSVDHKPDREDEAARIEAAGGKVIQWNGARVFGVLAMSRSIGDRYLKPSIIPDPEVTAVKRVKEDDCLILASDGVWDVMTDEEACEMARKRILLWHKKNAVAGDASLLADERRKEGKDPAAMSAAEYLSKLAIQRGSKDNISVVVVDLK
`N85R`: “relative binding score” 72.3%.
For `F157N`, “relative binding score” read -3.08%.
`F66L`: “relative binding score” 0.917%.
For `D144T`, “relative binding score” read -3.17%.
For `D65R`, “relative binding score” read 12.6%.
`T135N`: “relative binding score” -25.9%.
Under “relative binding score”, `Q2T` is recorded as 38.2%.
For `N114K`, “relative binding score” read -2.51%.
For `Q7P`, “relative binding score” read 12%.
For `R132S`, “relative binding score” read 72.7%.
`V40G` — result for “relative binding score”: -4.44%.
Under “relative binding score”, `L164P` is recorded as 15.1%.
`E125N`: “relative binding score” 40.7%.
`D97A`: “relative binding score” 46.2%.
`E89R`: “relative binding score” -5.78%.
`L169T`: “relative binding score” -11.7%.
For `L166N`, “relative binding score” read -7.16%.

Block 5
Target: RING finger protein unkempt homolog, zinc fingers 1-6, GST-SBP tag (UNK, Homo sapiens, UniProt Q9C0B0, residues 30-357)
Chain of UniProt Q9C0B0 (30-357, looked up): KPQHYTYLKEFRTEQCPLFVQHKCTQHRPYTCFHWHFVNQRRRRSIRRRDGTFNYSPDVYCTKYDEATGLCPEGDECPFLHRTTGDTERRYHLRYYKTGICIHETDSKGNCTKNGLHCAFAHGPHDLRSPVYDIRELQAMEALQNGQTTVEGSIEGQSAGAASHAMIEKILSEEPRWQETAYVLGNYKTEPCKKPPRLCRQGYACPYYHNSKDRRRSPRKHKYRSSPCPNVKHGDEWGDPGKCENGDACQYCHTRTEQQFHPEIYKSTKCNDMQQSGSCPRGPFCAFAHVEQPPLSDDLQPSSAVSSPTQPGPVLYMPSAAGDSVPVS
Method: RNA Bind-n-Seq
Form: RNA
Sample: in vitro
Concentration: not given
Notes: RNA with constant flanks, human-mouse chimeric sites, ends assumed
Relative to: input RNA pool
Direction: higher = stronger binding
The bound/input enrichment of `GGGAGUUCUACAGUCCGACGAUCAGAUUCCCCCUCCUGAGACCUCCUCCGAAAUUGGCAUCUCUUACAGAUGCCUCAUCCCCUGUUAGCGUUUUGGUCUGGACCACCCAGCCUUGGACAAUUCCCGCCAACCAGGCAAUUUGCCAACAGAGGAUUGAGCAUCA` is reported as 0.755 ratio.
For `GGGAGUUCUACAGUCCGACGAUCAAAGCCCAAGUAUUUUGAAAAAACUCGAACAGAUUUAACAAGGGUAGCCAGCUUGGAGUCUAGCAAUUUGCCAAUGUGUUUACCAAUCUGGGGGCUUGUUUUUCUUUUCUUCUUUCAAAUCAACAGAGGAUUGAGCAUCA`, the bound/input enrichment was 0.354 ratio.
`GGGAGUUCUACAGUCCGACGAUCAGAUAUUAAGUAUUUUGAAAAAACUCGAACAGAUUUGACAAGGGUAGCCAGCUUGGAGUCUAGCAACUUGCCAAUGUGUUUACCAAUCUGGGGGCUUGUUUUUCUUUCCCUUCCUUAAAUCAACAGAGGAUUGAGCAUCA` has a bound/input enrichment of 0.291 ratio.
With `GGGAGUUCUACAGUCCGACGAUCGUGACUGACAUUAAAAUUUCCCCUCAGCAAAGAAGUGUAGCAGUGACCAUAAUUCCAUCUGUGGUGAGUGCCAGUCAGAUUGUGGAGCUGGUCCCAGACCUCAGUUUAGACAUGGGAACUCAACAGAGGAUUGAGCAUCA` the bound/input enrichment was 0.383 ratio.
With `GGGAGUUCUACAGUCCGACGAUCUAAGUCCUGUGCCAGCACUUCGCUCAUAAAGUUUUAAAUUCUGGACCAAUUGUGUUUGUUUCCUGAUUAUUGUAUCCAAUACUUUAUCUAGUAUGUAACUCACUCUUACUGAUAAUAAAACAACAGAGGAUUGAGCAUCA` the bound/input enrichment was 0.824 ratio.
For `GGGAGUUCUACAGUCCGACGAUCCAGCCUCAGAGCCCAGACUUCCUGGAUAUCACCAACCCUAAAGCGGUAUUAGAAAAUGCAUUGAGAAACUUCGCCUGUCUGACGACUGGAGAUGUGAUUGCCAUCAACUACAAUGAGAAGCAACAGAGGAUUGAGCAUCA`, the bound/input enrichment was 0.5 ratio.
`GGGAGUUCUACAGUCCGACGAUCGCCACCAAUUCCAGCCAACAUGACCCUUGCUGCCUACAAAGAGAAGAUGAAGGAACUCCCGCUGGUGUCCUUGUUCUGCUCCUGCUUCCUGGCCGAUCCCCUGAAUAAGUCGUCCUACAACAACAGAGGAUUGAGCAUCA` gave a bound/input enrichment of 0.375 ratio.
The bound/input enrichment of `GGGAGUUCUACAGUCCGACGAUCUCCCAAAUCCAGCAGCUAGAAGGAGCCUUGAGACAAACACUCCACACACAGGGAAGGCAAUAGCUUUGUACAUUGGUUUACAUUUUUUCCCCCUGUGUUUUCUAGGGGAGGUCAUAGUGCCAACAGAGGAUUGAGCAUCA` is reported as 0.854 ratio.

Excerpt of the above (block 1):
The 7-mer Z-score of `GACAUUC` is reported as -0.238.
`GACAGCG` gave a 7-mer Z-score of -0.0826.
The 7-mer Z-score of `AAGCGGG` is reported as 0.642.
`AAACGCU` gave a 7-mer Z-score of 0.379.
For `CAGGGAU`, the 7-mer Z-score was 0.135.
The 7-mer Z-score of `AAGCAUC` is reported as 0.00436.
